Measurements from different studies.
Every numbered part comes from another study and shows a few of its results, in no order.

Block 1 — method: protein binding microarray; molecule type: double-stranded DNA, one strand shown; sample: in vitro; tested at: not given; baseline: not given; direction: higher = stronger binding
Target: Histone acetyltransferase KAT6A, winged helix 1, GST fusion (KAT6A, Homo sapiens, UniProt Q92794, residues 1-85)
Notes: 8-mer, flanks averaged, mean of 2 arrays, mostly near background
Residues (chain): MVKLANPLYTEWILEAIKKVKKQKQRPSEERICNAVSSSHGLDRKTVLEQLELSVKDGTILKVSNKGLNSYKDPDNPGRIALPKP
The E-score of `AAAGTAAG` is reported as -0.218.
The E-score of `AGCCCGAA` is reported as 0.00308.
With `CTCAGGGC` the E-score was -0.0481.
The E-score of `CCAGTTAG` is reported as -0.211.
With `GCGGCTTA` the E-score was 0.332.
For `AAACCGAC`, the E-score was 0.0823.
`ATGGTTTG` has an E-score of -0.0938.
For `GCGGTCAC`, the E-score was 0.281.

Block 2 — method: protein-binding microarray; molecule type: double-stranded DNA, one strand shown; sample: in vitro; tested at: 250 nM; notes: 60-bp whole probe; with: salmon DNA 0.4 mg/ml; baseline: random background probes; direction: higher = stronger binding; all sequences stand within: GCCTAGCAC … GTCTTGATTCGCTTGACGCTGCTG
Target: Interferon regulatory factor 5, full length, phosphomimetic (IRF5, Homo sapiens, UniProt Q13568-2, residues 1-514, K96S/S451D/S453D/S456D/S462D)
`GACGGTCTTGGTCTCGGGACGTGCTAG` gave a log fluorescence of -0.211 z-score.
The log fluorescence of `TTAGGACTGGGCCTCGGTTAGTGCTAG` is reported as -0.569 z-score.
The log fluorescence of `TTAGGTCTCCTGCTGCTTTAGTGCTAG` is reported as -0.608 z-score.
`TTGGATTTCGGGACTGGATTAGTGCTA` has a log fluorescence of 2.05 z-score.
`TCAGTTTTCCTTCATGTACTGTGCTAG` has a log fluorescence of 0.985 z-score.
With `GACGGACTGCTACTGCTGGCGTGCTAG` the log fluorescence was -0.487 z-score.
For `TTAGATATCAGTCTCGGTTAGTGCTAG`, the log fluorescence was 2.03 z-score.
The log fluorescence of `CAATACCTTATGAATGTGTTGTGCTAG` is reported as 0.325 z-score.

Other studies, line by line
AKT1: RAC-alpha serine/threonine-protein kinase (AKT1, Homo sapiens, UniProt P31749)
Chain of UniProt P31749 (whole entry, looked up): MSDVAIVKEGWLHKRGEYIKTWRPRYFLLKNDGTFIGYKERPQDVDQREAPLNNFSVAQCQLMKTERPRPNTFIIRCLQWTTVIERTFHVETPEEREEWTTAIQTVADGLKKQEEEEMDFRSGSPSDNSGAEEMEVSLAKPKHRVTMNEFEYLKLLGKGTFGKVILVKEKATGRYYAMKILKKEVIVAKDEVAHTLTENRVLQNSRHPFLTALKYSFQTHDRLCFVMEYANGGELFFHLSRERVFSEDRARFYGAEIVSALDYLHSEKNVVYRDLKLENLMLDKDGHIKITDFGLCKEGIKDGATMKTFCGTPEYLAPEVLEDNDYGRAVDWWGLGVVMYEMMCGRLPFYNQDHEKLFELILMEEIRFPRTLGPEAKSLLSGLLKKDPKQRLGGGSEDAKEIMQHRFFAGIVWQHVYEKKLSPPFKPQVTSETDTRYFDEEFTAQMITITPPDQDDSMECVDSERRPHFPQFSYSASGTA
With `NC(=O)c1ccc(N(C(N)=O)c2c(F)cccc2F)nc1-c1ccc(F)cc1F` the remaining activity was 84.7% (AKT1; enzyme activity, inhibitor; 0.5 µM; baseline: control).
`COc1ccc(-c2c(Nc3ccccn3)[nH]c3c(C4=CCCCC4)c(-c4ccccc4)nn3c2=O)cc1` — result for “AUC over dosing interval”: 32300 ng·h/mL (LC-MS/MS non-compartmental; human, plasma; oral, 50 mg once daily, cycle 1).
For `CCCC(=O)Oc1ccc2[nH]c(C(=O)c3cc4ccccc4[nH]3)cc2c1`, the remaining activity was 102% (AKT1; enzyme activity, inhibitor; 0.5 µM; baseline: control).
Under “coronary arteriosclerosis incidence”, `CC(C)n1cnc(-c2ccc(F)cc2)c1-c1ncc(C(=O)Nc2ccc(N3CCN(C)CC3)cc2)[nH]1` is recorded as 0% (IPF patients; 30 mg once daily, adverse event).

A few entries again (block 1):
With `CTCAGGGC` the E-score was -0.0481.
The E-score of `CCAGTTAG` is reported as -0.211.
